Measured values from different studies.
Numbers after ± are the reported error.

| Compound | test | test system | setting | how to read | measurement | result |
| --- | --- | --- | --- | --- | --- | --- |
| CCCCN1C(=O)c2cccc3c(NCCCCN4CCOCC4)ccc(c23)C1=O | – | toluene | – | – | absorption maximum | 424 nm |
| Cc1cc(Cl)cc([S+](C)[O-])c1NC(=O)c1cc(Br)nn1-c1ncccc1Cl (stereo not shown) | potentiometric | – | – | – | pKa | 8.9 |
| O=C(Nc1cnccc1-c1ccc([18F])cc1)c1ccnc(NC(=O)C2CC2)c1 | ex vivo gamma counting | GSK-3β transgenic mice, early-stage, urine | intravenous, 120 min, mean, no P-gp inhibitor | – | SUV | 3.9 |
| Cc1nc(N)nc2c1C(=O)N[C@@H](c1ccc(F)cc1-c1cccc(O[11CH3])n1)C2 | ex vivo biodistribution | mice, MDA-MB-231 subcutaneous xenograft, pancreas | 60 min post-injection, baseline, vehicle pre-treatment | – | tracer uptake | 2.4 ± 0.1 %ID |
| CC(C)(O)c1ncc([S@](N)(=O)=NC(=O)Nc2c3c(cc4c2CCC4)CCC3)s1 | item: general, administration-site conditions | healthy human | oral, dose not given, 14 days, all active multiple doses pooled | – | subjects with TEAEs | 35% |
| Cc1cc(F)ccc1-c1cc(N2C[C@H]3COC(O)CN3C[C@H]2CO)ncc1N(C)C(=O)C(C)(C)c1cc(C(F)(F)F)cc(C(F)(F)F)c1 (stereo partly shown) | – | human male, plasma | oral, 120 mg, AUC(0-inf) based | – | share of total plasma radioactivity | ~11% |
| CC(C)(C)NCC(SS(=O)(=O)O)c1ccccc1 (stereo not shown) | – | Swiss Webster mice, Schistosoma mansoni-infected | 600 mg/kg single dose on day 15 post-infection, perfusion day 44 post-infection | – | body weight | 32.2 g |
| CCC1CNC(CC)CN(C(C(=O)[O-])c2ccc(C(=O)[O-])cc2)C(CC)CN(CC(=O)[O-])C(CC)CN1.[Mn+2] (stereo not shown) | ICP-MS | BALB/c mice, intestine | intravenous, 0.05 mmol/kg, 1440 min | relative to: injected dose | Mn uptake | 8.25 ± 5.49% |
| COc1cccc(OC)c1-c1cc(C(=O)NC2(C(=O)O)C3CC4CC(C3)CC2C4)nn1-c1ccc(C(=O)N(C)CCCN(C)C(=O)[C@H](CCCCNC(=O)[C@H](CC(C)C)NC(=O)C2OC2C(=O)O)NC(=O)CN2CCN(CC(=O)[O-])CCN(CC(=O)[O-])CCN(CC(=O)[O-])CC2)cc1C(C)C.[177Lu+3] (mixture of isomers) | – | mouse, HT-29 xenograft | 168 h post injection, biodistribution | relative to: tumour over liver uptake | tumour-to-liver ratio | 1.22 |
| O=C(CN1CCN(CC(=O)NCc2ncccc2O)CCN(CC(=O)NCc2ncccc2O)CCN(CC(=O)NCc2ncccc2O)CC1)NCc1ncccc1O.[177Lu+3] | – | Sprague-Dawley rat, large intestine | intravenous, dose not given, 2 h | – | biodistribution | 0.014 ± 0.008 % injected dose/g |
| CCCCN1C(=O)c2cccc3c(NCCCN4CCOCC4)ccc(c23)C1=O | – | methanol | – | – | absorption maximum | 441 nm |
| CN(O)C(=O)CCC(=O)NCCCN(CCCCN(CCCNC(=O)CCC(=O)N(C)O)C(=O)CCC(=O)N(C)O)C(=O)CCC(=O)N(C)O.[89Zr] | radio-TLC | aqueous buffer | 1 d, pH 7.2, 37 °C, 89Zr-labelled complex, together with: MgCl2 10-fold excess | – | intact complex | 99.7 ± 0.6% |
| C=C[C@]1(C)C[C@@H](OC(=O)CSc2ccc(NC(=O)c3ccco3)cc2)[C@]2(C)[C@H](C)CC[C@]3(CCC(=O)[C@H]32)[C@@H](C)[C@@H]1O | – | M. gallisepticum-infected chickens, plasma | intramuscular, 5 mg/kg single dose | – | central volume (V1/F) | 7.39 L/kg |
| CN1CCC[C@]1(C)/C=C/S(=O)(=O)NC(=O)Nc1c2c(cc3c1CCC3O)CCC2 (stereo partly shown) | – | human, plasma | oral, 50 mg twice daily of parent drug, day 1, metabolite of dosed drug | – | AUC(0-tau) | 227 µg·h/mL |
| CC(C)=CCC1=C([O-])C(=O)c2ccccc2C1=O.CC(C)=CCC1=C([O-])C(=O)c2ccccc2C1=O.[Zn+2].c1ccc(-c2ccnc3c2ccc2c(-c4ccccc4)ccnc23)cc1 | cyclic voltammetry | dichloromethane | 0.1 mM, together with: 0.1 M Bu4NPF6 | relative to: Ag/AgCl in saturated KOH | cathodic peak potential | -1.31 V |
| Cc1nc(N)nc2c1C(=O)N[C@@H](c1ccc(F)cc1-c1cccc(OCC[18F])n1)C2 | ex vivo biodistribution | C57BL/6 mice, intestines | intravenous, 30 min | – | uptake | 12.6 ± 1.01 %ID |
| CC[C@H](C)[C@@H](C(=O)N[C@@H](CC(C)C)C(=O)N[C@@H](CO)C(=O)N[C@@H](CO)C(=O)N[C@H](C(=O)N[C@@H](CCC(=O)O)C(=O)N[C@H](C(=O)NCC(=O)N[C@@H](CO)C(=O)N[C@@H](CC(N)=O)C(=O)N[C@H](C(=O)N1C[C@H](O)C[C@H]1C(N)=O)[C@@H](C)O)C(C)C)[C@@H](C)O)N(C)C(=O)[C@H](C)NC(=O)CN(C)C(=O)[C@H](Cc1ccccc1)NC(=O)[C@H](CO)NC(=O)[C@H](CO)NC(=O)[C@H](CCCNC(=N)N)NC(=O)[C@H](CCC(N)=O)NC(=O)[C@H](CC(C)C)NC(=O)[C@H](Cc1ccccc1)NC(=O)[C@H](Cc1c[nH]cn1)NC(=O)[C@H](C)NC(=O)[C@H](CC(C)C)NC(=O)[C@H](CCCNC(=N)N)NC(=O)[C@H](CCC(=O)O)NC(=O)[C@@H](NC(=O)[C@H](C)NC(=O)[C@@H]1CSSC[C@H](NC(=O)[C@H](CCCNC(=N)N)NC(=O)CC[C@H](NC(=O)CCCCCCCCCCCCCCCCCCC(=O)O)C(=O)O)C(=O)NCC(=O)N[C@@H]([C@@H](C)O)C(=O)N[C@@H](C)C(=O)N[C@@H]([C@@H](C)O)C(=O)N1)[C@@H](C)O | RP-HPLC | aqueous solution | 7 days, pH 6, 40 °C | – | degradation | 7% |
| O=C(O)/C=C\c1cc2ccoc2cc1O[C@@H]1O[C@H](CO)[C@@H](O)[C@H](O)[C@H]1O | post-procedure stability | rat plasma | 8 ng/mL, 1 h, room temperature | – | accuracy | 102% |
| C/C(N)=N/C(=N\S(=O)(=O)c1ccc(C(F)(F)F)cc1)N1C[C@H](c2ccccc2)C(c2ccc(Cl)cc2)=N1 | – | beagle dog, plasma | oral, 12 mg/kg | – | half-life | 1090 min |
| CCCCN1C(=O)c2cccc3c(NCCCCCN4CCOCC4)ccc(c23)C1=O | – | ethyl acetate | – | – | fluorescence quantum yield | 1.06 |
| CCCC[C@H](OC(C)=O)c1ccccc1C(=O)O | – | beagle dogs, both sexes, whole blood | intravenous, 0.5 mg/kg single dose | – | MRT(0-inf) | 1.7 ± 2.4 h |
| [123I]c1ccc2nc(-c3ccc(-n4ccnn4)nc3)cn2c1 | – | male Wistar rat, lung | intravenous, 4 MBq, 1 h | – | tracer uptake | 0.142 %ID/g |
| [2H]C1([2H])CC[C@@H](C[C@@H](C#N)NC(=O)[C@@H]2[C@@H]3[C@H](CN2C(=O)[C@@H](NC(=O)C(F)F)C(C)(C)C)C3(C)C)C(=O)N1 | – | mouse liver microsomes | microsomes 0.5 mg/mL | – | intrinsic clearance | 63.8 µL/min/mg |
| O=C(Nc1cnccc1-c1ccc([18F])nc1)c1ccnc(NC(=O)C2CC2)c1 | – | FVB/NJ mice (both sexes), eyes | intravenous, dose not given, 120 min | – | SUV | 0.053 |
| OCC1OC(n2cnc3c(NCc4ccc(Br)s4)ncnc32)C(O)C1O (stereo not shown) | – | beagle dog, blood | intravenous, 0.5 mg/kg | – | half-life | 510 min |
| CC[C@H](C)[C@H](NC(=O)[C@H](CCCCN)NC(C)=O)C(=O)N[C@@H](C)C(=O)N[C@@H](C)C(=O)N[C@@H](CC(C)C)C(=O)N[C@@H](CCCCN)C(=O)N[C@@H](CCC(=O)O)C(=O)N[C@@H](CCCCN)C(=O)N[C@H](C(=O)N[C@@H](C)C(=O)N[C@@H](C)C(=O)N[C@@H](CC(C)C)C(=O)N[C@@H](CCCCN)C(=O)N[C@@H](CCC(=O)O)C(=O)N[C@@H](CCCCN)C(=O)N[C@H](C(=O)N[C@H]1CSCc2ccc(cc2)CSC[C@@H](C(=O)NCC(=O)N[C@@H](Cc2c[nH]c3ccccc23)C(N)=O)NC(=O)[C@H](CCCCN)NC(=O)[C@H](CC(C)C)NC(=O)[C@H](C)NC1=O)[C@@H](C)CC)[C@@H](C)CC | circular dichroism thermal melting | PBS | pH 7.4, single peptide 50 µM total | – | melting temperature | 26 °C |
| CCCCN1C(=O)c2cccc3c(NCCCCCCCCN4CCOCC4)ccc(c23)C1=O | – | DMF | – | – | absorption maximum | 439 nm |
| C=C(NC(=O)c1csc(-c2nc3c(cc2O)-c2nc(cs2)C(=O)NC(C(C)O)C(=O)NC(=C(C)OC)c2nc(cs2)C(=O)NC2c4nc(cs4)C(=O)NC(COC(=O)c4c5c6c(cccc6n4O)COC(=O)C(OC4CC(C)(O)C(N(C)C)C(C)O4)C2OC5)c2nc-3cs2)n1)C(N)=O (stereo not shown) | – | Sprague-Dawley rat, female, plasma | intravenous infusion, 6 mg/kg single dose | – | MRT(0-last) | 1.16 h |

Repeated from above:
| Compound | test | test system | setting | how to read | measurement | result |
| --- | --- | --- | --- | --- | --- | --- |
| C=C(NC(=O)c1csc(-c2nc3c(cc2O)-c2nc(cs2)C(=O)NC(C(C)O)C(=O)NC(=C(C)OC)c2nc(cs2)C(=O)NC2c4nc(cs4)C(=O)NC(COC(=O)c4c5c6c(cccc6n4O)COC(=O)C(OC4CC(C)(O)C(N(C)C)C(C)O4)C2OC5)c2nc-3cs2)n1)C(N)=O (stereo not shown) | – | Sprague-Dawley rat, female, plasma | intravenous infusion, 6 mg/kg single dose | – | MRT(0-last) | 1.16 h |
| CCCCN1C(=O)c2cccc3c(NCCCCCCCCN4CCOCC4)ccc(c23)C1=O | – | DMF | – | – | absorption maximum | 439 nm |
| Cc1cc(F)ccc1-c1cc(N2C[C@H]3COC(O)CN3C[C@H]2CO)ncc1N(C)C(=O)C(C)(C)c1cc(C(F)(F)F)cc(C(F)(F)F)c1 (stereo partly shown) | – | human male, plasma | oral, 120 mg, AUC(0-inf) based | – | share of total plasma radioactivity | ~11% |
| CN1CCC[C@]1(C)/C=C/S(=O)(=O)NC(=O)Nc1c2c(cc3c1CCC3O)CCC2 (stereo partly shown) | – | human, plasma | oral, 50 mg twice daily of parent drug, day 1, metabolite of dosed drug | – | AUC(0-tau) | 227 µg·h/mL |
